Experimental data collected from several papers.
Every numbered part comes from another study and shows a few of its results, in no order. Substitutions count along the parent as printed.

Block 1
Target: Prothrombin, mature alpha-thrombin (F2, Homo sapiens, UniProt P00734)
Technique: aptamer microarray, sandwich
Form: DNA with 2'F-ANA
Medium: in vitro
Tested at: 200 nM
Setting: whole 15-mer aptamer, many near background
Added: Cy3 exosite-II aptamer, 400 nM
Reading: higher = stronger binding
Endpoint: mean fluorescence intensity
Sequence: GGTTGGTGTGGTTGG
2'F-ANA at 1 5 15: 136 a.u.
2'F-ANA at 1 3 4 11 13: 152 a.u.
2'F-ANA at 1 2 4 5 6 7 8 11 12 13: 75.1 a.u.
2'F-ANA at 1 4 6 7 8 9 14 15: 55.9 a.u.
2'F-ANA at 1 2 4 7 13 14: 50 a.u.
2'F-ANA at 1 4 5 8 10 12 14: 46.4 a.u.
2'F-ANA at 4 11: 287 a.u.
2'F-ANA at 2 3 4 6 7 8 9 14 15: 263 a.u.
2'F-ANA at 3 4 5 6 7 8 9 10 11 12 13 14 15: 71.9 a.u.
2'F-ANA at 3 6 7 8 9 10 14: 419 a.u.
2'F-ANA at 2 6 7 8 9 10 11 14: 86 a.u.
2'F-ANA at 2 4 5 6 8 9 12: 179 a.u.
2'F-ANA at 1 2 3 4 5 7 9 12 13 14 15: 49.8 a.u.
2'F-ANA at 5 7 11: 68.2 a.u.
2'F-ANA at 2 4 6 10 13 14 15: 66.1 a.u.
2'F-ANA at 4 5 6 7 14: 52.2 a.u.
2'F-ANA at 4 6 7 9 10 11 12 13 15: 142 a.u.
2'F-ANA at 3 7 8 13 15: 1060 a.u.
2'F-ANA at 2 3 5 7 8 9 10 11 12 13 14: 71.2 a.u.
2'F-ANA at 2 3 7 8 9 11 13 15: 642 a.u.
2'F-ANA at 4 5 7 8 10 13 14 15: 48.5 a.u.
2'F-ANA at 1 2 8 10 11 14: 47 a.u.

Block 2
Target: CCNF, cyclin fold, Cln2 fusion (human)
Technique: yeast growth competition, sequencing
Medium: yeast
Setting: strong parent motif
Relative to: not given
Reading: higher = stronger binding
Endpoint: normalised enrichment score
Starting sequence: SLBP docking peptide (human); ARYKRKLLINDFG
ARYKRKLLINYFG [D11Y]: 3.12
ARYKRKLLINCFG [D11C]: 2.96
ARYKRQLLINDFG [K6Q]: 1.49
ARYKRKLLINDWG [F12W]: 1.61
ARYKRKLMINDFG [L8M]: 2.18
ARYKRKLLIYDFG [N10Y]: 2.97
ARYKLKLLINDFG [R5L]: 2.44
ARYKRKHLINDFG [L7H]: 0.094
ARYKRKLLINDPG [F12P]: 1.16
ARYKRKLLINDNG [F12N]: 1.45
ARFKRKLLINDFG [Y3F]: 1.52
MRYKRKLLINDFG [A1M]: 2.27
ARYKRKLVINDFG [L8V]: 2.12
ARYKRKILINDFG [L7I]: 1.02
AWYKRKLLINDFG [R2W]: 1.98
ARYKRKLLINVFG [D11V]: 2.31

Block 3
Target: Histone acetyltransferase KAT6A, both winged helices, GST fusion (KAT6A, Homo sapiens, UniProt Q92794, residues 1-181)
Technique: protein binding microarray
Form: double-stranded DNA, one strand shown
Medium: in vitro
Tested at: not given
Setting: 8-mer, flanks averaged, mean of 2 arrays, mostly near background
Relative to: not given
Reading: higher = stronger binding
Endpoint: E-score
Residues (chain): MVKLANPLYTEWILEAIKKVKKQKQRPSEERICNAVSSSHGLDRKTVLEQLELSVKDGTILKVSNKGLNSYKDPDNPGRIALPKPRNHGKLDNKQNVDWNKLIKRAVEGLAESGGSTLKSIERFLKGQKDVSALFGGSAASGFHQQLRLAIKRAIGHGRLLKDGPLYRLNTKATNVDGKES
GGGCTCTA: -0.164
GTTCTCTA: 0.0661
AACCTATA: -0.00259
GCGACTAA: -0.0204
CAAACTCC: 0.0997
CTCCACTC: -0.218
ACCCAAGT: -0.234
ACAAGGCA: -0.226
TCCATACA: -0.205
ATGCAGTG: -0.161
CACATTAA: -0.177
GCACCAGC: -0.0305
CACCCAAA: -0.157
AGACCATC: -0.138
CACGTATC: -0.0831
GATTGATA: -0.0297
CCGCTGAA: 0.0852
GGACACAC: 0.0309
CTTCCTGA: -0.25
AGAAGCCT: -0.132
CTAATTAC: -0.115
GAGACCCC: -0.0678
CGTGATAG: 0.159
CCCCGGGC: 0.168
GAGGCAGA: -0.154

Single results of other studies
PhoQ, residues 284 288 289 292 302 303 ALAMYF — fold induction (PhoP, residues 12 14 15 18 19 HHYTI (Escherichia coli, UniProt P23836); Sort-seq, measured: YFP reporter; E. coli; PhoQ-PhoP variant library, added: 10 µM Mg2+; relative to: high Mg2+ state, higher = stronger signaling): 2.34

Excerpt of the above (block 1):
2'F-ANA at 2 4 6 10 13 14 15: 66.1 a.u.
2'F-ANA at 4 5 6 7 14: 52.2 a.u.
2'F-ANA at 4 6 7 9 10 11 12 13 15: 142 a.u.
2'F-ANA at 3 7 8 13 15: 1060 a.u.
2'F-ANA at 2 3 5 7 8 9 10 11 12 13 14: 71.2 a.u.
2'F-ANA at 2 3 7 8 9 11 13 15: 642 a.u.
2'F-ANA at 4 5 7 8 10 13 14 15: 48.5 a.u.
2'F-ANA at 1 2 8 10 11 14: 47 a.u.
